Results collected from several papers.
Every numbered part comes from another study and shows a few of its results, in no order. Changes are numbered by the printed parent chain.

Block 1 — method: protein binding microarray; form: double-stranded DNA, one strand shown; matrix: in vitro; concentration: not given; baseline: not given; direction: higher = stronger binding
Target: Histone acetyltransferase KAT6A, both winged helices, GST fusion (KAT6A, Homo sapiens, UniProt Q92794, residues 1-181)
Notes: 8-mer, flanks averaged, mean of 2 arrays, mostly near background
Construct (chain): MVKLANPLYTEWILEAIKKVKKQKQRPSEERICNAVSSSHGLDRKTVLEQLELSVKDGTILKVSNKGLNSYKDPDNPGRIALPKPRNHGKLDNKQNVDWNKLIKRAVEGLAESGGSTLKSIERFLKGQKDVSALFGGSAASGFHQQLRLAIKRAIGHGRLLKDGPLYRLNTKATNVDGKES
| Oligonucleotide | E-score |
| --- | --- |
| CCTTGGCA | -0.223 |
| GTACCGCA | 0.243 |
| GTAGAGTA | -0.0914 |
| ACCTGAGA | -0.275 |
| CCATTCAA | -0.164 |
| AAAGGATG | -0.122 |
| TGAATCCA | -0.115 |
| CTTATTCA | -0.104 |

Block 2 — target: Sox, HMG box (Pigoraptor chileana); method: Spec-seq; form: double-stranded DNA, one strand shown; matrix: in vitro; concentration: not given; notes: whole probe, mean of replicates; baseline: not given; direction: lower = stronger binding; shared flanks, not repeated: GAGTCGTCTCGTCAGCAC … CCGTAGAGCACTCAGGTC
Construct (chain): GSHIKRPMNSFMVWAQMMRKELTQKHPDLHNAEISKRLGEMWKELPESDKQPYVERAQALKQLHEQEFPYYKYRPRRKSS
| Oligonucleotide | relative binding energy [ln ratio] |
| --- | --- |
| CATCCAC | 0.334 |
| CATCCCG | 0.799 |
| CATACAA | -0.586 |
| AGTCGTT | -0.748 |
| ACCGGTT | 0.322 |
| GGGAGTT | 1.47 |
| CATCTCC | 1.01 |
| CATGACT | 0.713 |

Block 3 — method: DHFR PCA, deep sequencing; matrix: yeast; added: (+)-ABA 0.11 µM; baseline: wild-type fitted maximum; direction: higher = stronger binding
Target: ABI1, truncated, D143A, DHFR fusion (Arabidopsis thaliana)
Notes: methotrexate growth selection, single substitutions
Starting sequence: PYL1, truncated, DHFR fusion (Arabidopsis thaliana); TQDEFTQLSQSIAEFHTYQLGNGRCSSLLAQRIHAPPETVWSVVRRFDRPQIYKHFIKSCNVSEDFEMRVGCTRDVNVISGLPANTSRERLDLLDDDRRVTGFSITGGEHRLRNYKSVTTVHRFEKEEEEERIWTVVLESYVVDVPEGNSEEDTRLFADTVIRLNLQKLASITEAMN; partner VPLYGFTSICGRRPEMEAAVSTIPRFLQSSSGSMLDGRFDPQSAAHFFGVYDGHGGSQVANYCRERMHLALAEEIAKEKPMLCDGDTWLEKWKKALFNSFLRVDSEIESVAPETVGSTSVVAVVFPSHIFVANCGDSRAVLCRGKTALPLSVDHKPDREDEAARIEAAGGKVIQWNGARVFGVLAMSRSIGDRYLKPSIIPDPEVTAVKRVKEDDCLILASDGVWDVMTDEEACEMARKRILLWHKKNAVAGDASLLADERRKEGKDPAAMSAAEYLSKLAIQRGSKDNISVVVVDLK
| Change | relative binding score |
| --- | --- |
| P36L | 16.4% |
| E67N | 20% |
| F157G | -0.368% |
| F15D | 2.05% |
| S104A | -0.57% |
| K126V | 43.8% |
| I133Y | 27.2% |
| R49G | -0.452% |

Mixed results
Starting sequence: viral docking peptide; KGVKRKLFAEDSS; partner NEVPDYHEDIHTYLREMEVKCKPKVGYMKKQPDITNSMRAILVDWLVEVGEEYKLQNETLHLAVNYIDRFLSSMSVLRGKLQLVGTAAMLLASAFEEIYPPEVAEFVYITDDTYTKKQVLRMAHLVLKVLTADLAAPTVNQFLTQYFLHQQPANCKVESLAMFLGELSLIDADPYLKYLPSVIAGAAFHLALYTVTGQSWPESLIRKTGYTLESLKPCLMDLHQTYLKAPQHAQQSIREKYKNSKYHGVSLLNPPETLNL
| Change | target | test | system | conditions | how to read | measurement | value |
| --- | --- | --- | --- | --- | --- | --- | --- |
| V3L | CCNA2, cyclin fold, Cln2 fusion (human) | yeast growth competition, sequencing | yeast | strong parent motif | baseline: not given, higher = stronger binding | normalised enrichment score | 3.07 |

Some of these lines once more (block 1):
| Oligonucleotide | E-score |
| --- | --- |
| CCTTGGCA | -0.223 |
